Assay results pooled from the literature.
Lines come from different studies, so protocols differ. ± gives the spread as reported.

| Compound | system | setting | AUC(0-inf) [ng·h/mL] |
| --- | --- | --- | --- |
| COC(=O)/C=C/C(=O)c1ccc(OC)cc1 | Sprague-Dawley rat, both sexes, plasma | oral, 200 mg/kg | 2120 ± 269 |
| Cc1ccc(/N=N/c2c(O)ccc3ccccc23)c(C)c1 | Sprague-Dawley rats both sexes, whole blood | oral, 50 mg/kg | 2970 |
| CC(C)(C)C(=O)Nc1ccc2[nH]c(CN3CCC(N(CCCN4CCOCC4)CC4OC(n5cnc6c(N)ncnc65)C(O)C4O)CC3)nc2c1 (stereo not shown) | Sprague-Dawley rat male, plasma | intraperitoneal, 20 mg/kg | 2740 ± 657 |
| CC(C)CNC(=O)/C=C/CCc1ccc2c(c1)OCO2 | rat, sham-operated, plasma | oral, 50 mg/kg | 115 ± 44.9 |
| Cc1cc(O)c2c(c1)C(=O)c1cc(O)cc(O)c1C2=O.Cc1cc(O)c2c(c1)C(=O)c1cc(O)cc(O)c1C2=O.Cc1nc(C)c(C)nc1C | Sprague Dawley rat, plasma | oral, 100 mg/kg | 27200 ± 23200 |
| CN1CCN(c2ccc(Nc3ncc(Cl)c(Nc4ccccc4P(C)(C)=O)n3)cc2Br)CC1 | male Sprague-Dawley rat, plasma | oral, 25 mg/kg | 6750 |
| O=C(O)/C=C/c1cccc(S(=O)(=O)Nc2ccccc2)c1 | patients with moderate liver dysfunction, plasma | intravenous, 400 mg/m^2 belinostat, single 30 min infusion, cycle 1 day -7, mean | 10000 |
| Cc1ccccc1/N=N/c1ccc(/N=N/c2c(O)ccc3ccccc23)c(C)c1 | Sprague-Dawley rats both sexes, whole blood | oral, 50 mg/kg | 10000 |
| Cc1cc2c(cc1C1(c3ncc(C(=O)O)cn3)CC1)C(C)(C)CCC2(C)C | rat, Sprague-Dawley, male, plasma | oral, 100 mg/kg, sesame oil vehicle | 51500 |
| COc1cc2oc(-c3ccc(O)cc3)cc(=O)c2c(O)c1[C@@H]1O[C@H](CO)[C@@H](O)[C@H](O)[C@H]1O[C@@H]1O[C@H](CO)[C@@H](O)[C@H](O)[C@H]1O | male Sprague-Dawley rat, normal, plasma | oral, 6.8 g/kg | 79.9 ± 37.8 |
| N=C(N)NCCC[C@H](NC(=O)[C@@H]1CCCN1C(=O)[C@H](Cc1ccccc1)NC(=O)[C@@H]1CCCN1C(=O)[C@H](Cc1c[nH]cn1)NC(=O)[C@@H](N)Cc1ccccc1)C(=O)O | Sprague-Dawley rat male, plasma | oral gavage, 50 mg/kg | 99.4 ± 28.9 |
| CONC(=O)/C=C/c1cccc(S(=O)(=O)Nc2ccccc2)c1 | patients with moderate liver dysfunction, plasma | intravenous, 400 mg/m^2 belinostat, single 30 min infusion, cycle 1 day -7, mean | 13800 |
| Cn1cc(C(N)=O)c(NC2C3CC4CC2CC(O)(C4)C3)c2ccnc1-2 (stereo not shown) | Japanese adults, moderate hepatic impairment, plasma | oral, 150 mg single dose, fasting, Child-Pugh B | 1350 |
| C#Cc1cccc(Nc2ncnc3cc(OC)c(OCCCN4CCOCC4)cc23)c1 | Sprague-Dawley rat, plasma | oral, 40 mg/kg | 21200 ± 4830 |
| Cn1cc(C(N)=O)c(NC2C3CC4CC2CC(OS(=O)(=O)O)(C4)C3)c2ccnc1-2 (stereo not shown) | Japanese adults, moderate hepatic impairment, plasma | oral, 150 mg single dose, fasting, Child-Pugh B | 1140 |
| Cc1cc(/C=C/C#N)cc(C)c1Oc1nc(NC2CCN(Cc3ccc(P(C)(C)=O)cc3)CC2)nc2ccsc12 | male Sprague-Dawley rats, plasma | oral, 10 mg/kg | 1300 ± 322 |

A few entries again:
| Compound | system | setting | AUC(0-inf) [ng·h/mL] |
| --- | --- | --- | --- |
| O=C(O)/C=C/c1cccc(S(=O)(=O)Nc2ccccc2)c1 | patients with moderate liver dysfunction, plasma | intravenous, 400 mg/m^2 belinostat, single 30 min infusion, cycle 1 day -7, mean | 10000 |
